Published values gathered from unrelated publications.
Compare with care: the assays were run in different laboratories. Several values in a cell are separate wells, animals, samples, runs or records. Numbers after ± are the reported error.

Substance | target or system | test | test system | setting | scale | measurement | value
HVLVMSATRR | – | – | peptide, C57BL/6J mice, male, serum | subcutaneous osmotic pump, 3 mg/kg/day peptide basis, 8 weeks | – | phosphorus | 7.3 mg/dL
GWTLNSAGYLLGPHAVDNHRSFNDKHGFT-NH2 (C-amide) | – | RT-qPCR, item: Tjp1 | peptide, mouse, DSS-induced colitis, colon | ip, 3 µM, 3% DSS, unit not given | baseline: Gapdh | mRNA level | 3.92 and 5.5 and 7.14 and 4.77
pertussis toxin | – | immunostaining | humanized mouse, SAH model, meninges | dose not given | – | p-PKC level | 49.1 MFI
GWTLNSAGYLLGPRRIDHLLMIKEMPIARGREEAPGA / YAVDNHRSFNDKHGFT-NH2 (C-amide) | – | RT-qPCR, item: Tgfb1 | mouse, DSS-induced colitis, colon | ip, 3 µM, 3% DSS, unit not given | baseline: Gapdh | mRNA level | 1.57 and 1.97 and 1.18 and 0.928 and 1.55
insulin human | – | item: CAMK1D mRNA | EcoHIV-infected mouse, brain | i.p., dose not given | baseline: PBS | fold change | 1.06
heparin sodium | – | – | healthy Chinese adult volunteers | continuous intravenous infusion, 8 IU/kg/h, 5 days | – | positive urine occult blood | 0%
nonaarginine | PorA peptide pore | peptide binding, planar bilayer single-channel recording | – | 0.5 µM, pH 7.4, -40 mV, cis side, 150 mM KCl | – | koff | 5000 ± 500 s⁻¹
glucagon | – | arteriovenous isotope dilution | human, type 1 diabetes | iv, dose not given, overnight fasted, baseline | – | splanchnic extraction | 30.7 ± 2.7%
Polymyxin B | – | – | mouse | intraperitoneal, 20 mg/kg single dose, day 3 | – | survival | 100%
hexaarginine | PorA peptide pore | peptide binding, planar bilayer single-channel recording | – | 0.5 µM, pH 7.4, -25 mV, cis side, 150 mM KCl | – | kon | 15.4 ± 2 µM⁻¹ s⁻¹
aspterric acid | – | hypocotyl length | Arabidopsis thaliana Col-0 seeds | 50 µg/mL, seed germination | baseline: water control | inhibition | 98.9%
colistin | Aspergillus fumigatus | – | pkcA G579R, solid minimal medium | 80 µM, 4 days, 37 °C | baseline: untreated | radial growth ratio | 0.775 and 0.782 and 0.8
